Measurements from different studies.
“And” joins repeats or separate records; there may be more than shown.
DDR1: Epithelial discoidin domain-containing receptor 1 (DDR1, Homo sapiens, UniProt Q08345)
Sequence of UniProt Q08345 (whole entry, unmodified, looked up): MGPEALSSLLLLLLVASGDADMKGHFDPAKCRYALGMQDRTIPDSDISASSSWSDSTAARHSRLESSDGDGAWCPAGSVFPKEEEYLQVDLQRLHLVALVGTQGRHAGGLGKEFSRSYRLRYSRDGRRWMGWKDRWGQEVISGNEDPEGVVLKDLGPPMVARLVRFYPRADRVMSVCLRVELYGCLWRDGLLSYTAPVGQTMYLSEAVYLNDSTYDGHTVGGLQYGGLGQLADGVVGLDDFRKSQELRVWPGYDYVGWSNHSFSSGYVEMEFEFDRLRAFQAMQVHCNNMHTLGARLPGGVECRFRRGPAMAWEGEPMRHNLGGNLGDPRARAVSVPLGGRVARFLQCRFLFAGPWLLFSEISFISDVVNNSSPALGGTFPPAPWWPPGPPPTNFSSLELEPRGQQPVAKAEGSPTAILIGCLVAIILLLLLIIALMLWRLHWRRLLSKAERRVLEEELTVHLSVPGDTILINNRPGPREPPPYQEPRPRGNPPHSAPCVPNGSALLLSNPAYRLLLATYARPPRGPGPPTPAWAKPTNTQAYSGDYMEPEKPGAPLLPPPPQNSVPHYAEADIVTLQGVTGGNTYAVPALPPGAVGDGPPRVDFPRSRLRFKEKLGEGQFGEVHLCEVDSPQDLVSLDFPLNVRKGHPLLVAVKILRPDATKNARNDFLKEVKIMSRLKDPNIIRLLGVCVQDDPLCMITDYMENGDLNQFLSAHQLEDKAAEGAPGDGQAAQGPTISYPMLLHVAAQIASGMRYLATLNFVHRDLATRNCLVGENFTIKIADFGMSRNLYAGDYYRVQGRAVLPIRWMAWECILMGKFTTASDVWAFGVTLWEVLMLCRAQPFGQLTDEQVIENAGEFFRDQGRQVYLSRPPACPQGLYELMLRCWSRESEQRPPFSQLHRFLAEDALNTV

Compound	target	test	test system	setting	scale	endpoint	value
CCn1cc(C(=O)O)c(=O)c2c(N)c(F)c(NC3CCCCC3)cc21	Epithelial discoidin domain-containing receptor 1, phosphorylated by SRC (DDR1, Homo sapiens, UniProt Q08345)	kinase activity	–	0.1 µM, added: ATP at Km	–	inhibition	-18.7%
CNC(=O)C[C@H](Cc1ccc(C#N)cc1)NC(=O)c1cc(-c2ccc(CN[C@H](C)c3ccc(C)cc3)o2)ccc1Cl	DDR1	enzyme activity, inhibitor	–	1 µM	–	activity vs control	106%
CNC(=O)C1CCN(c2cc(C)c(F)cc2NC(=O)c2ccc(-c3cc(O)ccc3C)c(C)c2)CC1	DDR1	binding, competition with immobilised ligand	–	1 µM	–	remaining binding	57%
COc1cc(Nc2nc(C)cc(-c3cnn4nc(OC)ccc34)n2)cc(C(F)(F)F)c1	DDR1	inhibitor	–	1 µM	relative to: control	remaining activity	99%
C=CC(=O)N1CCc2ccc(-n3c(=O)ccc4cnc5ccc(-c6cnn(C)c6)cc5c43)cc21	DDR1	KINOMEscan	–	1 µM	relative to: DMSO control	remaining binding	100%
C[C@H]1CN(C(=O)c2cn(-c3ccnc(N)n3)c3cc(C#CC4(O)CCCCC4)ccc23)CCN1	DDR1	cell-free assay, TR-FRET	–	1 µM	–	inhibition	1%
Nc1ncc(-c2cc(-c3cnn(CC(F)(F)F)c3)ncc2F)nc1C(=O)NC1CNCC(F)C1 (stereo not shown)	DDR1	enzyme activity	–	1 µM	relative to: DMSO control	remaining activity	73.2%
CCN1CCN(Cc2ccc(NC(=O)c3ccc(C)c(NC(=O)c4cncc(-c5cccs5)c4)c3)cc2C(F)(F)F)CC1	DDR1	binding, competition with immobilised ligand	–	1 µM	–	remaining binding	0.4%
Cc1cccc(O[C@H]2CCC[C@@H](C(C)CNCc3ccncc3)C2)c1 (relative stereo)	DDR1	cell-free assay	–	1 µM	–	inhibition	0%
O=C(Nc1ccc(Oc2ncnc3[nH]cc(-c4ccccc4)c23)c(F)c1)c1c2n(n(-c3cc(F)ccc3F)c1=O)CCCC2	DDR1	enzyme activity, inhibitor	–	0.5 µM	–	inhibition	40%
N[C@H]1CC[C@H](Nc2nccc(-c3cccnc3Oc3ccc(NC(=O)NC4CC4)c4ccccc34)n2)CC1	DDR1	kinobead competition pulldown	HEK293/HCT116 lysate mixture	10 µM, 1 h, 4 °C	lower = stronger competition	log2 LFQ intensity	19.3 and 21.1 and 20.3 and 18.2
NC(=O)[C@@H](O)C[C@H]1CCc2sc3ncnc(O[C@H]4CC[C@H](N5CCOCC5)CC4)c3c21	DDR1	enzyme activity, inhibitor	–	10 µM	–	inhibition	63%
Nc1ncc2c(n1)-c1c([nH]c3ccc(C4=CCOCC4)cc13)CCC2	DDR1	binding, competition with immobilised ligand	–	1 µM	–	remaining binding	96%

Excerpt of the above:
Compound	target	test	test system	setting	scale	endpoint	value
C=CC(=O)N1CCc2ccc(-n3c(=O)ccc4cnc5ccc(-c6cnn(C)c6)cc5c43)cc21	DDR1	KINOMEscan	–	1 µM	relative to: DMSO control	remaining binding	100%
